{"data": "Assay results pooled from the literature", "note": "Parts stem from different laboratories: compare values within a part only. Several values in a cell are separate wells, animals, samples, runs or records.", "sequence of UniProt P36897 (whole entry, looked up)": "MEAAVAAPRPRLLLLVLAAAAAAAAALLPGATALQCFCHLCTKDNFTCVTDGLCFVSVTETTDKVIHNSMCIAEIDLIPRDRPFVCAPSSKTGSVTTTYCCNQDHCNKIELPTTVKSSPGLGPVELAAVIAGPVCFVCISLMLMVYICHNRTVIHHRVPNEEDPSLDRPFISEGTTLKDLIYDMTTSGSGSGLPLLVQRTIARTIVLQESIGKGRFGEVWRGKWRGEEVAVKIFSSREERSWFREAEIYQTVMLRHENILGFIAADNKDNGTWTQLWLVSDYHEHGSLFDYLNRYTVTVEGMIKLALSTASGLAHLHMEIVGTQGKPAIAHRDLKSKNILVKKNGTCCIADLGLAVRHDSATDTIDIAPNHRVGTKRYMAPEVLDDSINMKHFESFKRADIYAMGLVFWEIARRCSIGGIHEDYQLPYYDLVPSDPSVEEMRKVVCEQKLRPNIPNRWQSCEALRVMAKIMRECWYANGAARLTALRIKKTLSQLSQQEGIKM", "sequence of UniProt O00444 (whole entry, looked up)": "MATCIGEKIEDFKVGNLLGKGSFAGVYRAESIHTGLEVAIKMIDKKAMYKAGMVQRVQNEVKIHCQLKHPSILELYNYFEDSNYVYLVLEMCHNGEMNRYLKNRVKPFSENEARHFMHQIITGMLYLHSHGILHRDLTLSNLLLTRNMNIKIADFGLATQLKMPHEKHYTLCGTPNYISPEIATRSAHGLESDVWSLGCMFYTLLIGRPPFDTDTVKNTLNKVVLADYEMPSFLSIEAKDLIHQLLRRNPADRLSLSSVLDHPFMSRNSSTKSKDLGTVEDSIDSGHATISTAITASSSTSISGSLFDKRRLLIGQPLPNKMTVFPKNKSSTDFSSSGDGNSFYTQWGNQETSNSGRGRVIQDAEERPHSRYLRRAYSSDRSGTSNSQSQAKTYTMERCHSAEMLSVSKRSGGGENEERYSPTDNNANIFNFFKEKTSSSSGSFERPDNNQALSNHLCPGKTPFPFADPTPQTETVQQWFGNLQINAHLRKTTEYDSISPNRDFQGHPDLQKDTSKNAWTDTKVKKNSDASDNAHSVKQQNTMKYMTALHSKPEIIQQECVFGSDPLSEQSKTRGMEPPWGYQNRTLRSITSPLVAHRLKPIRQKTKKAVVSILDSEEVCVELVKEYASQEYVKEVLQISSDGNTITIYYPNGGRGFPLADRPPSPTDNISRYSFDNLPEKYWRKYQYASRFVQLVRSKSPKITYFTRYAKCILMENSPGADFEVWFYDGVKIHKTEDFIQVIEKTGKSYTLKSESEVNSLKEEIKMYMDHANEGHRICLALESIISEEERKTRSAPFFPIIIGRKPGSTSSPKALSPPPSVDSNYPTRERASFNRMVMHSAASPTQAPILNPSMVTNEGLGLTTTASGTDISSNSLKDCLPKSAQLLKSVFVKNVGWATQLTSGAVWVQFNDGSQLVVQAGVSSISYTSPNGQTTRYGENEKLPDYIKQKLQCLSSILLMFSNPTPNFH", "sequence of UniProt Q9Y6M4 (whole entry, looked up)": "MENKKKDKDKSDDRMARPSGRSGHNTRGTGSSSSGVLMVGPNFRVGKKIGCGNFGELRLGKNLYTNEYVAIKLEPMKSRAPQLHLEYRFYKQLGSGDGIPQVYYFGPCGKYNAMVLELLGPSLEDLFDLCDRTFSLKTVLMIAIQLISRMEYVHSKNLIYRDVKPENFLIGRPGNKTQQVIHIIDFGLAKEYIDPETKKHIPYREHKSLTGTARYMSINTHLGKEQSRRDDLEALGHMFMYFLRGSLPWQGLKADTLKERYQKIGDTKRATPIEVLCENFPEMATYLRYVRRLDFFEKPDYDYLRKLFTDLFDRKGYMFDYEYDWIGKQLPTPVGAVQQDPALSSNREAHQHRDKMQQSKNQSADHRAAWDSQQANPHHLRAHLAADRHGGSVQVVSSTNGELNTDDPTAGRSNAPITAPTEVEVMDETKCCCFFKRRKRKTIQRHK", "sequence of UniProt P15056 (whole entry, looked up)": "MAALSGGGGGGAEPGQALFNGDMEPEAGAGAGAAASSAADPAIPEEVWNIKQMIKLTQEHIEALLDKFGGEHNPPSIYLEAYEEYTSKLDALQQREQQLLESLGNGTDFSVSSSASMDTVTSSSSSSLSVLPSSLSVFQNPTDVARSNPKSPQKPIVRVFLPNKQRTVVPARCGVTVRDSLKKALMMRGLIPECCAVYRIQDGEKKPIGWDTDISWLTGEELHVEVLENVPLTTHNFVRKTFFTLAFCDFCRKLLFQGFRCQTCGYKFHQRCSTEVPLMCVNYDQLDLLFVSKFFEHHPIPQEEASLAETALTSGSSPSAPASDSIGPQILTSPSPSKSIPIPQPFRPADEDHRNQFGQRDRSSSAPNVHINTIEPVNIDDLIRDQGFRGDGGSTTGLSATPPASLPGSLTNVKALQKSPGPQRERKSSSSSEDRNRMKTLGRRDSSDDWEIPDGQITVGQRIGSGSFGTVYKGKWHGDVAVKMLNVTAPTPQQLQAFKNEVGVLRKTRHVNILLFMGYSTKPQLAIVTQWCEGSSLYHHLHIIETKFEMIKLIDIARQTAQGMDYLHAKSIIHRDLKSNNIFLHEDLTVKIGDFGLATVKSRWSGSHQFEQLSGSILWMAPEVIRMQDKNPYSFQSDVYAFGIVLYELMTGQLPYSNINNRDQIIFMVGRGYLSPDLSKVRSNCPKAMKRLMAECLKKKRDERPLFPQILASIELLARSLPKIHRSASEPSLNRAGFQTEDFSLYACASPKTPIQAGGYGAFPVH", "sequence of UniProt Q9BQI3 (whole entry, looked up)": "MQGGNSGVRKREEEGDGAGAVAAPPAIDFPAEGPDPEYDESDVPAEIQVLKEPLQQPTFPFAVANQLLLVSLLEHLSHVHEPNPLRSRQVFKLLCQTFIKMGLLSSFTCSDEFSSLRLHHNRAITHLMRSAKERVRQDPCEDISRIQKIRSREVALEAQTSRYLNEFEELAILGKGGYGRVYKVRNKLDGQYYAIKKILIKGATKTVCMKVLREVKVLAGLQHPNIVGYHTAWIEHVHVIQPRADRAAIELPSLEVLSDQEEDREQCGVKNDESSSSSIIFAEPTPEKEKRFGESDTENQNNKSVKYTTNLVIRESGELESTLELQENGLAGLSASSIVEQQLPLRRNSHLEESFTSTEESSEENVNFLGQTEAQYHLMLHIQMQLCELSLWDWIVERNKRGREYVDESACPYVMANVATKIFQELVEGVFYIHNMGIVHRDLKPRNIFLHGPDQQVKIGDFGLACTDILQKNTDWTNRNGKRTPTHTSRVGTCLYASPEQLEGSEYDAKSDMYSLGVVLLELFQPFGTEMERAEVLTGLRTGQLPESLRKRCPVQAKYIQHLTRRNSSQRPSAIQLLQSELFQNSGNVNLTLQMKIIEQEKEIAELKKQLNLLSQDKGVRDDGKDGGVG", "sequence of UniProt Q92772 (whole entry, looked up)": "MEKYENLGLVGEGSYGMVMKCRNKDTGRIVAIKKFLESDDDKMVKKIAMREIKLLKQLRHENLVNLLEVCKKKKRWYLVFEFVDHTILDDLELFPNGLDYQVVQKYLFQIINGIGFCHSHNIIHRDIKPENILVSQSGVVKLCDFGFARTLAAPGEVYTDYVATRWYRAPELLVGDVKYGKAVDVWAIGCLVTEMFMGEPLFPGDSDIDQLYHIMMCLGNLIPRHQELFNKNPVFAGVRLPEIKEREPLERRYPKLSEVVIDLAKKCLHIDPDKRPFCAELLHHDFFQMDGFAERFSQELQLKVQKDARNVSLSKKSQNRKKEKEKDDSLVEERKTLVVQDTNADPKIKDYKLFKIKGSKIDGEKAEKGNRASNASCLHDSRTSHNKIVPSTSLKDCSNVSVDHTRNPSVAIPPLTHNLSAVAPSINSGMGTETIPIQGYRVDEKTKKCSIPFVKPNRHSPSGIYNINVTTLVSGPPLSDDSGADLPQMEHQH", "sequence of UniProt Q04759 (whole entry, looked up)": "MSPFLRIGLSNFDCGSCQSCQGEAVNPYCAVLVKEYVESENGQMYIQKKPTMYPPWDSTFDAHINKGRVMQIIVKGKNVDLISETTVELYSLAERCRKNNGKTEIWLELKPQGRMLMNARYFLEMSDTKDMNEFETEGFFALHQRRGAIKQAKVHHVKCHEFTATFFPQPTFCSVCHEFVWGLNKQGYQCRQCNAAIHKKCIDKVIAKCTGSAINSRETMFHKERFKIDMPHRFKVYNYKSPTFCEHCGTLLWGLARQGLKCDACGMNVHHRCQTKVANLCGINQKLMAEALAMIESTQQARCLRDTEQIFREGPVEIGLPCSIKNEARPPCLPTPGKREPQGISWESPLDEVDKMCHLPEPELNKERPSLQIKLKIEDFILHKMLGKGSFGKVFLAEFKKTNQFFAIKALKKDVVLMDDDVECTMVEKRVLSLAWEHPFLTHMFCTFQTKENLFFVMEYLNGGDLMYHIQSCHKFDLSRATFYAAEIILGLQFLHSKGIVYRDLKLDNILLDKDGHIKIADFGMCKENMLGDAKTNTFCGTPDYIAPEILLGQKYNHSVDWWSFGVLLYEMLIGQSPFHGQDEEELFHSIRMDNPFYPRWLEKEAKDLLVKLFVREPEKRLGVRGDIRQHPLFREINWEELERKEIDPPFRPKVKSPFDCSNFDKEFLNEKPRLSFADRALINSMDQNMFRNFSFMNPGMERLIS"}
{"data": "Study 1", "Structure (SMILES)": "COc1ccc2cc(OCC3(C(=O)O)CN(C(=O)c4ccc(F)cc4)C3)ccc2c1", "effect on": "cell-free assay", "technique": "competition with immobilised ligand", "concentration": "1 µM"}
{"target": "PRKCQ (Homo sapiens, UniProt Q04759)", "remaining binding": "100%"}
{"target": "TGFBR1 (Homo sapiens, UniProt P36897)", "remaining binding": "100%"}
{"target": "EIF2AK1 (Homo sapiens, UniProt Q9BQI3)", "remaining binding": "94%"}
{"target": "CDKL2 (Homo sapiens, UniProt Q92772)", "remaining binding": "89%"}
{"target": "CSNK1G3 (Homo sapiens, UniProt Q9Y6M4)", "remaining binding": "100%"}
{"target": "PLK4 (Homo sapiens, UniProt O00444)", "remaining binding": "82%"}
{"target": "Insulin receptor (INSR, Homo sapiens, UniProt P06213)", "remaining binding": "93%"}
{"data": "Study 2", "target": "Dual specificity protein kinase CLK1 (CLK1, Homo sapiens, UniProt P49759)", "effect on": "enzyme activity", "action": "inhibitor", "concentration": "0.5 µM", "reference": "control", "Target sequence (P49759 1-484)": "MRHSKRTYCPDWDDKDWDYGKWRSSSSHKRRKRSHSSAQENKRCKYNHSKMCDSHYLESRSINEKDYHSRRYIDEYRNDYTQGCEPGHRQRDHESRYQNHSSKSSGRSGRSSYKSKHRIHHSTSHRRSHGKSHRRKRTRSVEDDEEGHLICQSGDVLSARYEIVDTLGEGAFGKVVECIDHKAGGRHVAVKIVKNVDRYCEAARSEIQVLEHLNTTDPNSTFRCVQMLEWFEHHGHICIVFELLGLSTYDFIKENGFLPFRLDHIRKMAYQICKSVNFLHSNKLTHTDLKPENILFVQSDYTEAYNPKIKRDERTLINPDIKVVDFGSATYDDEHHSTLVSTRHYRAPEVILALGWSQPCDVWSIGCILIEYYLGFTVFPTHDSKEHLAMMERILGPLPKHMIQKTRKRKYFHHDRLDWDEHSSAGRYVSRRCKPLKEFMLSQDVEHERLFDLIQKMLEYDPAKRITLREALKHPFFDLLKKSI"}
{"Compound": "Oc1ccc(-c2nc(-c3ccncc3)c(-c3ccc(F)cc3)[nH]2)cc1", "remaining activity": "107%"}
{"Compound": "CCOC(=O)c1c(C)[nH]c(/C=C2\\C(=O)Nc3ccccc32)c1C", "remaining activity": "98.2%"}
{"Compound": "O=C(Nc1cccc(Nc2cc(Nc3cccc(C(F)(F)F)c3)ncn2)c1)C1CC1", "remaining activity": "107%"}
{"Compound": "Cc1cccc(-c2[nH]c(C(C)(C)C)nc2-c2ccc3c(c2)OCO3)n1", "remaining activity": "98%"}
{"Compound": "Cn1sc(=O)n(Cc2ccccc2)c1=O", "remaining activity": "112%"}
{"Compound": "COc1ccc(OC)c2c(=S)c3ccccc3[nH]c12", "remaining activity": "98.4%"}
{"Compound": "Nc1ncnc2n[nH]c(Nc3ccc(F)cc3)c12", "remaining activity": "102%"}
{"Compound": "CNC(=O)c1cc(Oc2ccc(NC(=O)Nc3ccc(Cl)c(C(F)(F)F)c3)cc2)ccn1", "remaining activity": "97.7%"}
{"Compound": "N#CC(C#N)=C(N)/C(C#N)=C/c1ccc(O)cc1", "remaining activity": "96.5%"}
{"Compound": "O=S(=O)(c1cccc2cnccc12)N1CCCNCC1", "remaining activity": "96.3%"}
{"Compound": "Cc1nc(-c2ccccc2)c(-c2ccncc2)o1", "remaining activity": "105%"}
{"Compound": "OCC(O)CCON=C1C(c2c(O)[nH]c3ccccc23)=Nc2ccccc21 (stereo not drawn)", "remaining activity": "36.6%"}
{"Compound": "COc1ccc(CNC(=O)Nc2ncc([N+](=O)[O-])s2)cc1", "remaining activity": "106%"}
{"Compound": "O=C1NC(=O)C(c2cn(CCCn3ccnc3)c3ccccc23)=C1Nc1ccccc1", "remaining activity": "43.3%"}
{"Compound": "Cc1ccc(NC(=O)c2ccc(CN3CCN(C)CC3)cc2)cc1Nc1nc(-c2cccnc2)cs1", "remaining activity": "101%"}
{"data": "Study 3", "host": "mouse", "matrix": "microsomes or S9", "concentration": "2 µM", "time": "0.5 h"}
{"Structure (SMILES)": "CCC1CCCCN1Cc1ccc(CNC(=O)c2noc3c2CCc2sccc2-3)o1 (stereo not drawn)", "remaining compound [%]": 3.5}
{"Structure (SMILES)": "CC(C)CCC(C(N)=O)C1=NC(C)(C)Cc2ccccc21 (stereo not drawn)", "remaining compound [%]": 6}
{"Structure (SMILES)": "c1cnc2c(c1)OC(Cn1nnc3ncc(-c4ccc(OCC5CCNCC5)cc4)nc31)CN2 (stereo not drawn)", "remaining compound [%]": 86.6}
{"Structure (SMILES)": "COCCN1N=C(C)Cn2c1nc1c2c(=O)n(Cc2ccccc2Cl)c(=O)n1C", "remaining compound [%]": 49.6}
{"Structure (SMILES)": "Oc1ccc(-c2nc(-c3ccc(F)c(F)c3)no2)cc1Cl", "remaining compound [%]": 54.9}
{"data": "Study 4", "SMILES": "Cc1cc2c(C(N)=O)c(N)n(-c3c(C)ccc(O)c3C)c2nc1C"}
{"target or system": "SRC (Homo sapiens, UniProt P12931)", "assay": "kinase activity, inhibitor, HTRF", "setting": "0.0005081 µM", "inhibition": "7.78%"}
{"target or system": "LN-229", "assay": "cell proliferation", "setting": "10000 nM", "inhibition": "97.6%"}
{"target or system": "BRAF (Homo sapiens, UniProt P15056)", "assay": "kinase activity, ADP-Glo", "setting": "0.3704 µM", "inhibition": "84.5%"}
{"target or system": "HCC1569", "assay": "automated capillary immunoblot, refers to: CDK1 phospho-Thr14", "setting": "4.12 nM", "inhibition": "32.6%"}
{"target or system": "RKO", "assay": "cell proliferation", "setting": "123.5 nM", "inhibition": "-5.88% and -5.57%"}
{"target or system": "MKN-1", "assay": "cell proliferation", "setting": "4.572 nM", "inhibition": "2.17% and 2.9% and 5.61%"}
{"note": "Excerpt of the above (study 4):"}
{"target or system": "MKN-1", "assay": "cell proliferation", "setting": "4.572 nM", "inhibition": "2.17% and 2.9% and 5.61%"}
{"target or system": "LN-229", "assay": "cell proliferation", "setting": "10000 nM", "inhibition": "97.6%"}
